Assay results collected from several papers.
Every numbered part comes from another study and shows a few of its results, in no order.

Set 1
Target: Ras GTPase-activating protein-binding protein 1, RRM domain (G3BP1, Homo sapiens, UniProt Q13283)
UniProt Q13283, sequence (whole entry, looked up): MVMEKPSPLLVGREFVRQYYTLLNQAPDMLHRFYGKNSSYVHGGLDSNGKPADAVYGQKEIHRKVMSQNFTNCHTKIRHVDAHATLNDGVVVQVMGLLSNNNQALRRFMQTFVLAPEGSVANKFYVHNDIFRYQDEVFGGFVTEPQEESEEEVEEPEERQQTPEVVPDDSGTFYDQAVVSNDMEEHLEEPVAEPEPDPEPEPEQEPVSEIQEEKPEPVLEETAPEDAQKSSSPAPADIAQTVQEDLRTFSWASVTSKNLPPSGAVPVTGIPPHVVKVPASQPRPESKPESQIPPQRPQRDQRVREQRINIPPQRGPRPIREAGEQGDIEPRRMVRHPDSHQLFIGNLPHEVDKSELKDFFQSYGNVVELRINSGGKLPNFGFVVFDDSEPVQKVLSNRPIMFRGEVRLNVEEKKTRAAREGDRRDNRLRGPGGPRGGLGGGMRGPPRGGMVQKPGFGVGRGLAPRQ
Technique: RNA Bind-n-Seq
Molecule type: RNA
Medium: in vitro
Concentration: 1 µM
Setting: whole 134-nt RNA, ends assumed
Added: 150 mM KCl
Baseline: input library
Direction: higher = stronger binding
Constant ends, left off below: GGGAGUUCUACAGUCCGACGAUC … UGGAAUUCUCGGGUGUCAAGG
Oligonucleotide | log2 enrichment
CACAGACAACACGCACCCACACAGACACAGAGCGAAGGGGUUGGGAUGGGGACAGGGUGCACAGCAGGGCGGGGUAGGACCCCAGCCCCU | -0.0855
AGUCCUGUGCUACACAUCGUAUGUACCGAAUCAAACCCAAACCCCCCCAAACCCAAAAAAGUAUUAUGUUACGCCGUUCGGAUCUGCACU | -0.273
UAUGAGGAUGAGUUGGUGCCCCUUUUUGAGAAGGCCGGACCCAUUUGGGAUCUACGUCUUAUGAUGGAUCCACUGUCCGGUCAGAAUAGA | -0.202
CUCAAGUCCUGUGCUACACAUCGUAUGUACCGAAUCGGAAAGGAAAAAGGAGGAAAGUAUUAUGUUACGCCGUUCGGAUCUGCACUUCCA | -0.161
GUCCUGUGCUACACAUCGUAUGUACCGAAUCGGAAAAAGGGAAAAAGGGAAAAAGGGGAAAGUAUUAUGUUACGCCGUUCGGAUCUGCAC | 0.0713
CCUGUGCUACACAUCGUAUGUACCGAAUCGGGAAAAAAGGGAAAAAAGGGGAAAAAAGGGAAAGUAUUAUGUUACGCCGUUCGGAUCUGC | 0.00649
CCUGUGCUACACAUCGUAUGUACCGAAUCGGGGAAAAAAGGGAAAAAAGGGAAAAAAGGGGAAAGUAUUAUGUUACGCCGUUCGGAUCUG | 0.0194
AAGUCCUGUGCUACACAUCGUAUGUACCGAAUCGGGCCCCGGGCCCCGGGGCCCCGGAAAGUAUUAUGUUACGCCGUUCGGAUCUGCACU | -1.55
UCCUGUGCUACACAUCGUAUGUACCGAAUCAAAGUGUGUGUGUAAAGUGUGUGUGUAAAAAAGUAUUAUGUUACGCCGUUCGGAUCUGCA | -0.0923
CAAGUCCUGUGCUACACAUCGUAUGUACCGAAUCGGGUUUGGGAGGGAAAAAGGGAAAGUAUUAUGUUACGCCGUUCGGAUCUGCACUUC | 0.864
CCUCAAGUCCUGUGCUACACAUCGUAUGUACCGAAUCGGUGGAAAGGUUUGGAAAGUAUUAUGUUACGCCGUUCGGAUCUGCACUUCCAG | -0.266
UCCUGUGCUACACAUCGUAUGUACCGAAUCGGGCCCCCCGGGCCCCCCGGCCCCCCGGGAAAGUAUUAUGUUACGCCGUUCGGAUCUGCA | -0.365
GUGAAUCAAAAACUCUGGUUUUAAGCAACCUCUCCUACAGUGCAACAGAAGAAACUCUUCAGGAAGUAUUUGAGAAAGCAACUUUUAUCA | 0.123
CACAGACAACACGCACCCACAGAGACACAGAGGGAAGGGGUUGGGAUGGGGACAGGGUGCACAGCAGGGCGGGGUAGGACCCCAGCCCCU | -0.011

Set 2
Target: RING finger protein unkempt homolog, zinc fingers 1-6, GST-SBP tag (UNK, Homo sapiens, UniProt Q9C0B0, residues 30-357)
Technique: RNA Bind-n-Seq
Molecule type: RNA
Medium: in vitro
Concentration: not given
Setting: RNA with constant flanks, human and mouse sites, ends assumed
Baseline: input RNA pool
Direction: higher = stronger binding
Constant ends, left off below: GGGAGUUCUACAGUCCGACGAUC … CAACAGAGGAUUGAGCAUCA
Construct (chain): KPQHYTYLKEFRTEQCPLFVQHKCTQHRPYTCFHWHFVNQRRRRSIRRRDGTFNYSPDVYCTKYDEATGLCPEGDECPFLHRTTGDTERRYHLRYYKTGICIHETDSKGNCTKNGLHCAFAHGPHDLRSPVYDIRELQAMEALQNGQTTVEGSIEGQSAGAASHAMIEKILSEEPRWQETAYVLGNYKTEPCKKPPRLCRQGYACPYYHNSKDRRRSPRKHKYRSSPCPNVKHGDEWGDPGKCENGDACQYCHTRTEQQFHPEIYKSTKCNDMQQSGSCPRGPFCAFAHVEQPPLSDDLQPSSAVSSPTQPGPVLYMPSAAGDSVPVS
Oligonucleotide | bound/input enrichment
GUGGACAUGGCGGCACAGGUUGCUGCAGGAAUGGCUUACAUCGAGCGCAUGAAUUAUAUCCACAGAGAUCUGCGAUCAGCAAACAUUCUAGUGGGGAAUGGACUAAUUUGCAAGAUUGCU | 0.469 ratio
AAACAAGCCUUUGAAAGAUGUCAUAGGCUCUCUGAUCCUUCUGACUUACCAAGGAAUGCCUUCAGAAUUUUUACCAUUCUUGUGGAAUUUUUAUGUAUUGAGCAUAUUGAUUAUGCUUUG | 0.0765 ratio
CCGGCGCGCGCGCGCGGGAUCCACGGGGGGCGGCGGCGUCCCCUCACCCGGCUCCUCCUGCGGCGCGGCGGGCUGUGCGGACAUGGCCGCGGCGGUGGCGGUGGCGGCCGCCUCUCGGCG | 1.32 ratio
CAGAUCCGAUGCCUCUGCCAGCGUGGGGCUGAGGUCACUGUGGUACCCUGGGACCAUGCACUAGACAGCCAAGAGUAUGAGGGUCUCUUCUUAAGUAAUGGGCCUGGUGACCCUGCCUCC | 0.134 ratio
GGUAUCAGGUCUCAAAACCAAGGUUCUUUGGCCCAGGGAAAGAAUUUUUUAAUGAGCAAAUUUUCAUCUCUAAAUCAAAAAGUGAAGCAGACCAAAUCCAAUGUAAAUAUUGGCAACCUC | 0.215 ratio
GGGCUCCGUGGUAAUGAAUUCUUCUGUGAGGUGGAUGAAGACUACAUCCAGGACAAAUUUAAUCUUACUGGACUCAAUGAGCAGGUGCCUCACUAUCGACAAGCUCUGGACAUGAUCUUA | 0.191 ratio
CGUUCUGCUAACACUAUCAAUUAUGCAUCGUGUUGAACGAAGCUUCGGGGAGGGGGAGGCUAGCAGGCGGCAGGAGGAAAAGGGUCCGGGAGAGCCAGGCAGCGCAGUUCAGCAGGUCCC | 0.286 ratio
CCCAUGGAGGCGUCCAGCGAGCCGCCGCUGGAUGCUAAGUCCGAUGUCACCAACCAGCUUGUAGAUUUUCAGUGGAAACUGGGUAUGGCUGUGAGCUCAGACACUUGCAGAUCUCUUAAG | 0.144 ratio
UCCUUUGUCCUUGGAUUACUUAAGAGUUCCCAGAAAUACAUUUGCCACCAACAGAGUAGCCAAAUUUAUAAGGAAAAAUGAUUCCCAAUGGAUAUUUGAUGUUUGAGGAUGAAAAUUUUA | 0.279 ratio
AAGGUUUGGUGGUUGGCAUUAUACCACUGAUACAAAGUAUUAGCAAAGUAUAGUUCAAAUUAAGUGACAUGACCAAGAGCUUUUCUCUUAAAAAAGAUGGAUUUUAUUGUAAAUAGUUUC | 0.701 ratio
GAUUUUGCCAUGCCCUAUUUCAUCCAGGUCAUGAAGGAGUACUUGACAAAGGUGGAUAAAUUAGAUGCUUCAGAAUCACUGAGAAAAGAAGAAGAACAAGCUACAGAGACACAACCCAUU | 0.194 ratio

Set 3
Target: Histone acetyltransferase KAT6A, winged helix 2, GST fusion (KAT6A, Homo sapiens, UniProt Q92794, residues 85-181)
Technique: protein binding microarray
Molecule type: double-stranded DNA, one strand shown
Medium: in vitro
Concentration: not given
Setting: 8-mer, flanks averaged, mean of 2 arrays, mostly near background
Baseline: not given
Direction: higher = stronger binding
Target sequence (chain): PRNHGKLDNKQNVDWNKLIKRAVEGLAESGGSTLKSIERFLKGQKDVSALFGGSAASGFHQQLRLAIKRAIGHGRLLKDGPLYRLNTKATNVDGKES
Oligonucleotide | E-score
GAATGCAC | 0.105
CTATTCCA | -0.00786
ATGTAACG | 0.00549
GCACGACA | -0.0481
CCTATAGG | -0.156
TCGCGCAA | 0.144
ATATCATG | -0.0148
CTTAGTTC | 0.0714
GCGGGGAA | 0.104
GTGCGAAA | 0.00792
GCCGTCGA | 0.109
AACAGACA | 0.167
GGGCCCTA | -0.0324
AGCGTGCG | 0.108
AAGCAGAC | 0.0279
GCATGGGC | 0.00639
ACCACTAC | -0.229
CGGTTCCC | 0.0838
ACGCACGG | 0.158
CGGCCCGA | 0.215

Set 4
Target: Interferon regulatory factor 7, full length, phosphomimetic (IRF7, Homo sapiens, UniProt Q92985, residues 1-503, S101K/S471D/S472D/S475D/S476D/S477D/S483D/S484D/S487D)
UniProt Q92985, sequence (whole entry, unmodified, looked up): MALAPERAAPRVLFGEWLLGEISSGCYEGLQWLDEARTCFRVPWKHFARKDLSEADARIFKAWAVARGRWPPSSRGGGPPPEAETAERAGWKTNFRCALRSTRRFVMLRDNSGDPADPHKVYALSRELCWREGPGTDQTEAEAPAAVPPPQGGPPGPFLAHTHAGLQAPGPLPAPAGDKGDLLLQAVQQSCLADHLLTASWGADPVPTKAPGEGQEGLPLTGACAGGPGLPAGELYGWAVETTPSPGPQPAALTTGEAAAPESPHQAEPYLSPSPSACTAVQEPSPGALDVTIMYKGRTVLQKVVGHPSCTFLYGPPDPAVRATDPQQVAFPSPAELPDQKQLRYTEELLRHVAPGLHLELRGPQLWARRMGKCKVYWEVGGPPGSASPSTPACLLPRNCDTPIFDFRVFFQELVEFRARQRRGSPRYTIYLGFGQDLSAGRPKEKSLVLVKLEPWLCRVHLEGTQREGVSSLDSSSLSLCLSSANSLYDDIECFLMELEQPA
Technique: protein-binding microarray
Molecule type: double-stranded DNA, one strand shown
Medium: in vitro
Concentration: 250 nM
Setting: 60-bp whole probe
Added: salmon DNA 0.4 mg/ml
Baseline: random background probes
Direction: higher = stronger binding
Constant ends, left off below: GCCTAGCAC … GTCTTGATTCGCTTGACGCTGCTG
Oligonucleotide | log fluorescence
TTACATTTCGGGACTGGATTAGTGCTA | 0.825 z-score
GACGGTATCGGACCGGGGACGTGCTAG | -0.36 z-score
GGTGCTGTTTACATAGTTCTGTGCTAG | -0.131 z-score
GACCGTTTCGACACTGGGGACGTGCTA | 2.77 z-score
TTAGGCCTGCTTTTCCTTTAGTGCTAG | 1.27 z-score
GACTGACTGCTTTTCCTGACGTGCTAG | 0.058 z-score
TCATGCCTGTTTTTCCCACTGTGCTAG | 0.765 z-score
TTAGATCTCATTATCGATTAGTGCTAG | 0.72 z-score
TTAGGAGTGCTTATCCTTTAGTGCTAG | -1.09 z-score
TTAGGTTCCGGTTTCGATTAGTGCTAG | 11.9 z-score
ATAGGTATCGGTCTCGGTTAGTGCTAG | 2.1 z-score
TCATCTCTCTGTGACACACTGTGCTAG | 0.795 z-score
TCACCTCTGCATTCCCTACTGTGCTAG | 0.435 z-score
GACAGTTTCGGTTCCGGGACGTGCTAG | 11.6 z-score
TTAGGTTTCGGTCTCGGTAAGTGCTAG | 8.6 z-score
TTAGGACTGCTTATCCTTCAGTGCTAG | -0.14 z-score
TCACCTTTCTCAACCTCACTGTGCTAG | 1.29 z-score
TTAGGTATCGACACGGGGTTAGTGCTA | -0.152 z-score
GACGATAGCGGGTTTCGAGACGTGCTA | 2 z-score
TTAGATTTCAGTAACGATTAGTGCTAG | 0.503 z-score
GACGATCTCAGTCTCGCGACGTGCTAG | -0.174 z-score
TCAATCCTCTCACCTCAGACTGTGCTA | -0.172 z-score

Some of these lines once more (set 1):
Oligonucleotide | log2 enrichment
CACAGACAACACGCACCCACACAGACACAGAGCGAAGGGGUUGGGAUGGGGACAGGGUGCACAGCAGGGCGGGGUAGGACCCCAGCCCCU | -0.0855
GUGAAUCAAAAACUCUGGUUUUAAGCAACCUCUCCUACAGUGCAACAGAAGAAACUCUUCAGGAAGUAUUUGAGAAAGCAACUUUUAUCA | 0.123
UCCUGUGCUACACAUCGUAUGUACCGAAUCAAAGUGUGUGUGUAAAGUGUGUGUGUAAAAAAGUAUUAUGUUACGCCGUUCGGAUCUGCA | -0.0923
AGUCCUGUGCUACACAUCGUAUGUACCGAAUCAAACCCAAACCCCCCCAAACCCAAAAAAGUAUUAUGUUACGCCGUUCGGAUCUGCACU | -0.273
CACAGACAACACGCACCCACAGAGACACAGAGGGAAGGGGUUGGGAUGGGGACAGGGUGCACAGCAGGGCGGGGUAGGACCCCAGCCCCU | -0.011
CAAGUCCUGUGCUACACAUCGUAUGUACCGAAUCGGGUUUGGGAGGGAAAAAGGGAAAGUAUUAUGUUACGCCGUUCGGAUCUGCACUUC | 0.864
GUCCUGUGCUACACAUCGUAUGUACCGAAUCGGAAAAAGGGAAAAAGGGAAAAAGGGGAAAGUAUUAUGUUACGCCGUUCGGAUCUGCAC | 0.0713
CCUGUGCUACACAUCGUAUGUACCGAAUCGGGAAAAAAGGGAAAAAAGGGGAAAAAAGGGAAAGUAUUAUGUUACGCCGUUCGGAUCUGC | 0.00649
CCUCAAGUCCUGUGCUACACAUCGUAUGUACCGAAUCGGUGGAAAGGUUUGGAAAGUAUUAUGUUACGCCGUUCGGAUCUGCACUUCCAG | -0.266
CCUGUGCUACACAUCGUAUGUACCGAAUCGGGGAAAAAAGGGAAAAAAGGGAAAAAAGGGGAAAGUAUUAUGUUACGCCGUUCGGAUCUG | 0.0194
